Measurements from different studies.
Each numbered part is a random draw from the data of one study; scales do not carry over between parts. ± marks the error that the study gave.
Chain of UniProt P41586 (whole entry, looked up): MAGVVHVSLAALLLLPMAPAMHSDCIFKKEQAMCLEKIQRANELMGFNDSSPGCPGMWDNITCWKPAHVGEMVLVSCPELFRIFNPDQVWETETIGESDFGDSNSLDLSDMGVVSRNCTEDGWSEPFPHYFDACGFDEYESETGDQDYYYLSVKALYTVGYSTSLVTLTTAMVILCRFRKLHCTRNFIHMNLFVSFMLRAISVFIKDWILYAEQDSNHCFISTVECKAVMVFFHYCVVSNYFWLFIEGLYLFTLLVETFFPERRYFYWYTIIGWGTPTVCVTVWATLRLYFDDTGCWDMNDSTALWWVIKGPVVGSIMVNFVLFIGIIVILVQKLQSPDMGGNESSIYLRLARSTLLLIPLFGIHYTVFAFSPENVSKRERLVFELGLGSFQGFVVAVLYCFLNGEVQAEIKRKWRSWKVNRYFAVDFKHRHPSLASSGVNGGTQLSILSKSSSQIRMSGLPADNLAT

Sample 1
Structure (SMILES): O=C1NC2(CC2)COc2ncc(F)cc2[C@H]2COCCN2c2ccn3ncc1c3n2
Matrix: blood
Route: oral
Notes: subacute toxicity
Quantity: mean corpuscular volume
Sprague-Dawley rat, male; 5 mg/kg/day, 4 weeks, end of recovery: 57.4 ± 2.2 fL
Sprague-Dawley rat, male; 20 mg/kg/day, 4 weeks, end of recovery: 57.1 ± 1.6 fL
Sprague-Dawley rat, female; 20 mg/kg/day, 4 weeks, end of treatment: 66.3 ± 4.8 fL
Sprague-Dawley rat, male; 20 mg/kg/day, 4 weeks, end of treatment: 63.5 ± 2.6 fL
Sprague-Dawley rat, female; 20 mg/kg/day, 4 weeks, end of recovery: 56.6 ± 0.5 fL
Sprague-Dawley rat, female; 10 mg/kg/day, 4 weeks, end of treatment: 65.4 ± 2.1 fL

Further values, each from its own experiment
COc1ccccc1-c1n[nH]c2nc(NC3CCN(C(=O)Cc4ccc(F)cc4F)CC3)ncc12 — relative abundance (bead binding, competition bead pull-down, item: LINJ.34.0070; Leishmania donovani axenic amastigote extract; 10 µM; baseline: vehicle): 0.92
CC[C@H](C)[C@@H]([C@@H](CC(=O)N1CCC[C@H]1[C@H](OC)[C@@H](C)C(=O)N[C@H](C)[C@@H](O)c1ccccc1)OC)N(C)C(=O)[C@@H](NC(=O)[C@H](C(C)C)N(C)C(=O)OCc1ccc(NC(=O)[C@H](CCCNC(N)=O)NC(=O)[C@@H](NC(=O)CCCCCN2C(=O)CC(SC[C@H](NC(=O)[C@H](CC(=O)O)NC(=O)[C@H](Cc3ccc(O)cc3)NC(=O)[C@H](Cc3c[nH]c4ccccc34)NC(=O)[C@@H](N)CCCNC(=N)N)C(=O)O)C2=O)C(C)C)cc1)C(C)C (stereo partly drawn) — concentration (C57BL/6 mouse, healthy, lung; intraperitoneal, 2.5 mg/kg, 0.167 h): not detected
CSCC[C@H](NC(=O)[C@H](CCC(N)=O)NC(=O)[C@H](CCCCN)NC(=O)[C@H](CCCNC(=N)N)NC(=O)[C@H](Cc1ccc(O)cc1)NC(=O)[C@H](CCCNC(=N)N)NC(=O)[C@H](CO)NC(=O)[C@H](Cc1ccc(O)cc1)NC(=O)[C@H](CO)NC(=O)[C@H](CC(=O)O)NC(=O)[C@@H](NC(=O)[C@@H](N)Cc1ccccc1)[C@@H](C)O)C(=O)N[C@@H](C)C(=O)N[C@H](C(=O)N[C@@H](CCCCN)C(=O)N[C@@H](CCCCn1cc(C[C@H](NC(=O)CNC(=O)[C@H](CO)NC(=O)[C@H](CCCNC(=N)N)NC(=O)[C@H](CO)NC(=O)[C@H](CC(C)C)NC(=O)[C@H](CC(C)C)NC(=O)CNC(=O)[C@H](C)NC(=O)[C@H](CC(C)C)NC(=O)[C@H](CCCNC(=N)N)NC(=O)[C@H](Cc2c[nH]cn2)NC(=O)[C@@H](NC(=O)[C@@H](N)C(C)C)[C@@H](C)O)C(=O)N[C@H](C(=O)N[C@H](C(=O)N[C@@H](CCCCN)C(=O)N[C@@H](CC(N)=O)C(=O)N[C@@H](CC(N)=O)C(=O)N[C@@H](Cc2ccccc2)C(=O)N[C@H](C(=O)N2CCC[C@H]2C(=O)N[C@H](C(=O)N[C@@H](CC(N)=O)C(=O)N[C@H](C(=O)NCC(=O)N[C@@H](CO)C(=O)N[C@@H](CCCCN)C(=O)N[C@@H](C)C(=O)N[C@@H](Cc2ccccc2)C(N)=O)C(C)C)[C@@H](C)O)C(C)C)C(C)C)C(C)C)nn1)C(=O)N[C@@H](Cc1ccc(O)cc1)C(=O)N[C@@H](CC(C)C)C(=O)N[C@@H](C)C(=O)N[C@@H](C)C(=O)N[C@H](C(=O)N[C@@H](CC(C)C)C(=O)NCC(=O)N[C@@H](CCCCN)C(=O)N[C@@H](CCCNC(=N)N)C(=O)N[C@@H](Cc1ccc(O)cc1)C(=O)N[C@@H](CCCCN)C(=O)N[C@@H](CCC(N)=O)C(=O)N[C@@H](CCCNC(=N)N)C(=O)N[C@H](C(=O)N[C@@H](CCCCN)C(=O)N[C@@H](CC(N)=O)C(=O)N[C@@H](CCCCN)C(N)=O)C(C)C)C(C)C)C(C)C — Kb (ADCYAP1R1 (Homo sapiens, UniProt P41586); cAMP accumulation, antagonist; COS-7 transfected; added: VIP): 30.2 nM
COc1ccccc1-c1n[nH]c2nc(N[C@H]3CC[C@H](NS(=O)(=O)CC(C)C)CC3)ncc12 — relative abundance (bead binding, competition bead pull-down, item: LINJ.35.2790; Leishmania donovani extract; 10 µM; baseline: vehicle): 0.87
N=C(N)NCCC[C@@H]1NC(=O)[C@H](CCCCNC(=O)CCC(NC(=S)Nc2ccc(CC3CN(CC(=O)O)CCN(CC(=O)O)CCN(CC(=O)O)CCN3CC(=O)O)cc2)C(=O)NCCCC[C@@H]2NC(=O)[C@@H](Cc3ccc(O)cc3)NC(=O)[C@H](CC(=O)O)NC(=O)CNC(=O)[C@H](CCCNC(=N)N)NC2=O)NC(=O)[C@@H](Cc2ccc(O)cc2)NC(=O)[C@H](CC(=O)O)NC(=O)CNC1=O (stereo partly drawn) [scandium-44 labelled] — tissue uptake (PET imaging ROI; female athymic nude mice, U-87 MG xenograft, liver; intravenous, 0.5 h, added: cRGD 50 mg/kg blocking): 0.65 ± 0.14 %ID/g
CC(C)(C)C(=O)OCOP(=O)(OCOC(=O)C(C)(C)C)C1CCCN(O)C1=O (stereo not drawn) — GI50 (HL-60(TB)): 538 nM

For quick reference, copied from above (further values, each from its own experiment):
N=C(N)NCCC[C@@H]1NC(=O)[C@H](CCCCNC(=O)CCC(NC(=S)Nc2ccc(CC3CN(CC(=O)O)CCN(CC(=O)O)CCN(CC(=O)O)CCN3CC(=O)O)cc2)C(=O)NCCCC[C@@H]2NC(=O)[C@@H](Cc3ccc(O)cc3)NC(=O)[C@H](CC(=O)O)NC(=O)CNC(=O)[C@H](CCCNC(=N)N)NC2=O)NC(=O)[C@@H](Cc2ccc(O)cc2)NC(=O)[C@H](CC(=O)O)NC(=O)CNC1=O (stereo partly drawn) [scandium-44 labelled] — tissue uptake (PET imaging ROI; female athymic nude mice, U-87 MG xenograft, liver; intravenous, 0.5 h, added: cRGD 50 mg/kg blocking): 0.65 ± 0.14 %ID/g
